Assay results collected from several papers.
± gives the spread as reported.

Cc1c(P(=S)(c2ccccc2)c2ccccc2)n2ccccc2[n+]1C/C=C/c1ccccc1 — concentration (mouse, brain; intraperitoneal, 10 mg/kg, 24 h): 24 ng/g
O=c1[nH]c(=O)[nH]c(=O)[nH]1 — concentration (LC-MS/MS; rat CD IGS, female, pregnant, serum; oral, 1000 mg/kg/day, 10 days, range): 10.8 to 314 µg/mL
c1cc2ccc3cccc4ccc(c1)c2c34 — concentration (male Wistar rats, tongue; oral, 4 mg/kg, 24 h): 36.7 ± 5 ng/g
Nc1nc(N)nc(N)n1 — concentration (LC-MS/MS; rat, pregnant female, amniotic fluid; oral, 1000 mg/kg/day, 10 days): 472 µg/mL
C[C@H]1N=C(c2ccccc2F)c2cc(Br)ccc2-n2cnc(C(=O)O)c21 — concentration (Swiss Webster mice, lung; oral, 25 mg/kg, 60 min, propylene glycol 40%, HPMC 60%): 0.455 µM
O=C(NCCS)c1cccc(C(=O)NCCS)c1 — concentration (male Sprague-Dawley rat, plasma; intravenous, 1 mg/kg, 15 min): 0.309 µg/mL
CC(C)C[C@H](NC(=O)[C@H](CCC(=O)O)NC(=O)[C@H](CCC(=O)O)NC(=O)[C@H](CC(=O)O)NC(=O)[C@H](CCC(=O)O)NC(=O)[C@H](CCC(=O)O)NC(=O)[C@H](CCC(=O)O)NC(=O)[C@@H](N)CC(=O)O)C(=O)O — concentration (rat, CSF; intravenous, 11.0 mg/kg, 180 min): 0.00259 µg/mL
COc1ccc(C(=O)NCc2cc(C(C)C)no2)cc1OC1CCN(C)CC1 — concentration (male Sprague-Dawley rat, brain; intravenous, 1 mg/kg, 15 min): 23.4 ng/g
